Experimental data gathered from unrelated publications.
± gives the spread as reported. Values after ≈ are worked out from the molar mass of the structure shown.

| Compound | organism | assay | system | conditions | scale | measurement | value |
| --- | --- | --- | --- | --- | --- | --- | --- |
| CCC(NC(=O)NNS(=O)(=O)c1ccc(C)cc1)(C(F)(F)F)C(F)(F)F | Rotavirus | – | MA104 | concentration not given | – | antiviral activity | inactive |
| CCC1c2cc(OC)c(O)cc2C(c2ccc(O)c(OC)c2)C1C (stereo not drawn) | Spodoptera frugiperda | insecticidal activity | larvae | topical | – | LD50 | 2830 mg/kg |
| CC[C@H](C)[C@H](NC(=O)[C@H](CCCCN)NC(=O)[C@H](CCCCN)NC(=O)[C@H](CC(C)C)NC(=O)[C@H](CCCCN)NC(=O)[C@H](CCC(=O)O)NC(=O)[C@H](CCCCN)NC(=O)[C@@H](NC(=O)[C@H](CCCCN)NC(=O)[C@H](CC(N)=O)NC(=O)[C@H](CCCNC(=N)N)NC(=O)[C@H](Cc1ccccc1)NC(=O)[C@H](CCCCN)NC(=O)[C@H](CCCNC(=N)N)NC(=O)[C@H](CC(C)C)NC(=O)[C@H](CCCNC(=N)N)NC(=O)[C@H](CCCCN)NC(=O)[C@H](CCCNC(=N)N)NC(=O)[C@H](CC(C)C)NC(=O)CN)[C@@H](C)CC)C(=O)NCC(=O)N[C@@H](CCC(N)=O)C(=O)N[C@@H](CCCCN)C(=O)N[C@H](C(=O)N[C@@H](CCC(N)=O)C(=O)NCC(=O)N[C@@H](Cc1ccccc1)C(=O)N[C@H](C(=O)N1CCC[C@H]1C(=O)N[C@@H](CCCCN)C(=O)N[C@@H](CC(C)C)C(=O)N[C@@H](C)C(=O)N1CCC[C@H]1C(=O)N[C@@H](CCCNC(=N)N)C(=O)N[C@H](C(=O)N[C@@H](CC(=O)O)C(=O)N[C@@H](Cc1ccc(O)cc1)C(=O)O)[C@@H](C)O)C(C)C)[C@@H](C)CC | Streptococcus sanguinis | inhibition zone | ATCC 1.2497 | LB agar, overnight | – | lethal concentration | 1.16 µM |
| CC[C@H](C)[C@H](NC(=O)[C@H](C)NC(=O)[C@H](CO)NC(=O)CNC(=O)[C@H](C)NC(=O)[C@H](CO)NC(=O)[C@H](CCCCN)NC(=O)[C@H](CC(C)C)NC(=O)[C@H](CCC(=O)O)NC(=O)[C@H](CC(=O)O)NC(=O)[C@H](CCCCN)NC(=O)[C@H](CC(C)C)NC(=O)[C@H](C)NC(=O)[C@H](CCCCN)NC(=O)[C@H](CC(C)C)NC(=O)[C@H](Cc1ccccc1)NC(=O)[C@H](CCCCN)NC(=O)[C@@H](N)CC(C)C)C(=O)NCC(=O)N[C@@H](CCCCN)C(=O)N[C@H](C(=O)N[C@@H](CC(C)C)C(=O)N[C@@H](Cc1c[nH]cn1)C(=O)N[C@@H](CCCCN)C(=O)O)C(C)C | Gram-negative bacteria | MIC | – | concentration not given | – | antibacterial activity | active |
| CC[C@H](C)[C@H](NC(=O)[C@H](CCCCN)NC(=O)[C@H](CCCCN)NC(=O)[C@H](CC(C)C)NC(=O)[C@H](CCCCN)NC(=O)[C@H](CCC(=O)O)NC(=O)[C@H](CCCCN)NC(=O)[C@@H](NC(=O)[C@H](CCCCN)NC(=O)[C@H](CC(N)=O)NC(=O)[C@H](CCCNC(=N)N)NC(=O)[C@H](Cc1ccccc1)NC(=O)[C@H](CCCCN)NC(=O)[C@H](CCCNC(=N)N)NC(=O)[C@H](CC(C)C)NC(=O)[C@H](CCCNC(=N)N)NC(=O)[C@H](CCCCN)NC(=O)[C@H](CCCNC(=N)N)NC(=O)[C@@H](N)CC(C)C)[C@@H](C)CC)C(=O)NCC(=O)N[C@@H](CCC(N)=O)C(=O)N[C@@H](CCCCN)C(=O)N[C@H](C(=O)N[C@@H](CCC(N)=O)C(=O)NCC(=O)N[C@@H](Cc1ccccc1)C(=O)N[C@H](C(=O)N1CCC[C@H]1C(=O)N[C@@H](CCCCN)C(=O)N[C@@H](CC(C)C)C(=O)O)C(C)C)[C@@H](C)CC | Streptococcus salivarius | inhibition zone | ATCC 1.2498 | LB agar, overnight | – | lethal concentration | 2.66 µM |
| CC(=O)CCC1C(=O)NC(C(C)C)C(=O)NC(Cc2cc(O)cc(F)c2)C(=O)N2CCCC(N2)C(=O)OC(C(C)=CC=CC(=O)N2CCCCO2)CC=CC=CC(O)C(C)C1O (stereo not drawn) | Hepatitis C virus | viral replication, inhibitor | HCV replicon cells, L27I/R318W/D320E/S370P/C446S | – | reference: wild-type replicon | fold resistance | ~4 fold |
| O=C(Cc1csc2nc(-c3ccc(Br)cc3)cn12)NN=C1CCCC1 | herpes simplex virus 1 | viral cytopathicity, microscopy | HEL | – | – | EC50 | > 100 µg/mL |
| CC(=O)O[C@@H]1C[C@@H](C)O[C@H]2O[C@@H]3C[C@@H]4CC[C@@H]5[C@H](CC[C@]6(C)[C@@H](C7=CC(=O)OC7)CC[C@]56O)[C@@]4(C)C[C@H]3O[C@]21O | Schistosoma mansoni | – | mouse, chronic infection | oral, 10 mg/kg single dose, MV | – | worm number | 11 ± 7.1 |
| COc1ccc(Br)cc1/C=N/NC(=O)Cn1ccc(=O)c2ccccc21 | Bipolaris maydis | microbial growth | – | 50 µg/mL | – | inhibition | 13.3% |
| CC(C)C[C@@H]1NC(=O)[C@H](CCCCN)NC(=O)[C@H](C(C)C)NC(=O)[C@@H]2CCCN2C(=O)[C@@H](Cc2ccc(O)cc2)NC(=O)[C@H](CC(C)C)NC(=O)[C@H](CCCCN)NC(=O)[C@H](C(C)C)NC(=O)[C@H](CCCCN)NC(=O)[C@H](CC(C)C)NC(=O)[C@@H]2CCCN2C(=O)[C@@H](Cc2ccc(O)cc2)NC(=O)[C@H](C(C)C)NC(=O)[C@H](CCCCN)NC1=O | Gram-negative bacteria | – | – | 24 h, 7 strains | – | MIC geometric mean | 95.1 µg/mL (≈ 56.9 µM) |
| C/C=C/c1ccc(OC(C)=O)c(OC)c1 | Spodoptera frugiperda | – | larvae | 25 µg/mL | reference: untreated control | antifeedant index | 15.6% |
| CCC1(O)C([N+](=O)[O-])=NNc2nc(C)nn21 (stereo not drawn) | coxsackievirus B3 | – | Vero, Nancy | – | reference: CC50 over IC50 | selectivity index | 2 |
| O=C(C1CCN(c2nnnn2-c2ccccc2)CC1)N1CCCc2ccccc21 | Plasmodium falciparum | [3H]hypoxanthine incorporation | TM90 C2b | – | – | IC50 | 720 nM |
| C=C(C)[C@@H]1CC[C@]2(CO)CC[C@]3(C)[C@H](CC[C@@H]4[C@@]5(C)CCCNC(C)(C)[C@@H]5CC[C@]43C)[C@@H]12 | Human cytomegalovirus | – | HFF, AD169 | – | reference: CC50 over EC50 | selectivity index | 115 |
| C[C@@](O)(C(F)F)[C@H](NC(=O)c1ccc(C#CC#CC2CC2)cc1)C(=O)NO | Citrobacter freundii | agar dilution | ESBL and carbapenemase producers | – | – | MIC90 | 0.125 µg/mL (≈ 0.332 µM) |
| NC(CNC(CNC(CC(=O)O)C(=O)O)C(=O)O)C(=O)O (stereo not drawn) | carbapenem-resistant Enterobacteriaceae | – | clinical isolates | concentration not given, together with: meropenem | – | FIC index | < 0.1 |
| C/C=C/c1ccc(OCc2ccccc2)c(OC)c1 | Spodoptera frugiperda | – | larvae | 250 µg/mL | reference: untreated control | antifeedant index | 19.2% |
| CN(Cc1cc(C2CC2)on1)C(=O)c1cccc(-c2ccc3c(c2)CCO3)c1 | Cryptococcus neoformans | – | – | – | reference: H99 over acl1∆ mutant | MIC ratio | 8 fold |
